Measured values collected from several papers.
Protocols differ between the studies behind these lines. Several values in a cell are separate wells, animals, samples, runs or records. ± gives the spread as reported.
Chain of UniProt P48067 (whole entry, looked up): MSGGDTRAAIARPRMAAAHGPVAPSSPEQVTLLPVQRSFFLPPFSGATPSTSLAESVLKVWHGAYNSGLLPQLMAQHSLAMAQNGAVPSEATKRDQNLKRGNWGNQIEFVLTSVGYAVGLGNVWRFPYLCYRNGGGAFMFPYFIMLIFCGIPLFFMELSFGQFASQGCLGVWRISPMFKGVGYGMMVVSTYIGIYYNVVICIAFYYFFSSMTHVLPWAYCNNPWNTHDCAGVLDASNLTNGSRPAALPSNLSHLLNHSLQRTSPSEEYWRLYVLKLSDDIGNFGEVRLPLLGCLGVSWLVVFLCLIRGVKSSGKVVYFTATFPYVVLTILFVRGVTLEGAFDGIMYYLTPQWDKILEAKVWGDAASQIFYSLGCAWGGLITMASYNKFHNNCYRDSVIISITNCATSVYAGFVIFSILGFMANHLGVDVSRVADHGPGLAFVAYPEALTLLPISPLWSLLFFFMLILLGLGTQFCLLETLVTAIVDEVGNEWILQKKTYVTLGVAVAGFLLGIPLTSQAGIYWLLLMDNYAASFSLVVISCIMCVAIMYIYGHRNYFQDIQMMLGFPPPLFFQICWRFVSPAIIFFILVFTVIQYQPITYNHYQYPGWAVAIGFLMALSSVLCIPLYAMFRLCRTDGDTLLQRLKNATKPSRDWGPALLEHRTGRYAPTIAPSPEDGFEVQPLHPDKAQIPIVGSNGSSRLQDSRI

ACEQNPIYWARYADWLFTTPLLLLDLALLVDADEGT — contrast index (ex vivo fluorescence imaging; peptide, BALB/c mice, 4T1 tumour-bearing; intravenous, 5 nmol, 24 h post-injection, background-corrected mean fluorescence; relative to: tumour over muscle): 12.8 ± 5.7
TTFFDYDYGA — association constant (human CCL7; nano-ESI MS; peptide; pH 6.8, CCL7 10 µM): 11000 M⁻¹
EMIDENRRRVLVKVVLFP — inhibition (UltraID biotin ligase, C-terminal fusion; biotinylation activity, inhibitor, streptavidin/HA fluorescence ratio; peptide, HEK-293T; concentration not given, 30 min, together with: biotin 50 µM; relative to: control): > 75%
Pam2CSK4 — relative mRNA level (TLR2; agonist, RT-qPCR, measured: Mrc1; BV-2; 1.0 µM; relative to: untreated cells): 0.227 and 0.256 and 0.187
LTSTVQLIM — half-life of peptide-HLA complex (HLA class I histocompatibility antigen, A alpha chain, allele A*01:01 (Homo sapiens, UniProt P04439); complex stability, off-rate; peptide; 37 °C): 0.7 h
GEMVGQARILAQATSDLVNAIKDA — mean rupture force (vinculin head domain Vd1; complex rupture, AFM single-molecule force spectroscopy; peptide; multiple traces, C-terminal pulling, 800 nm/s): 74.2 pN
EIKYREEV — t1/2 (HLA-B8 (human); complex dissociation; peptide; 37 °C): 2 h
VVVGASGVGK — relative protein remaining (HLA class I peptide complex; Western blot; peptide, 293T; 0 h, together with: cycloheximide 100 µg/mL; relative to: baseline): 1
heparin sodium — inhibition (NEDD8-cullin 1 interaction; AlphaScreen; 100 µM): 45.7%
GSGAGHETIV — normalised SPR binding response (human MAGI1-2/6 PDZ construct (MBP fusion); surface plasmon resonance; peptide; concentration not given; higher = stronger binding): 6.1 normalised RU
insulin degludec — AUClast (human; subcutaneous, 0.4 IU/kg, 1 FC level, single dose, reference formulation): 592 ± 89 ng·h/mL
Teicoplanin — protein binding (ultrafiltration, UPLC-MS/MS; pooled human serum, spiked; 25 mg/L, 37 °C): 83.2%
Pam3CSK4 — relative mRNA level (TLR2; agonist, RT-qPCR, measured: Msr1; BV-2; 1.0 µM; relative to: untreated cells): 1.39 and 1.58 and 1.12
STVQLIMQL — binding score (HLA class I histocompatibility antigen, A alpha chain, allele A*02:01 (Homo sapiens, UniProt P04439); conformational ELISA; peptide; concentration not given; relative to: positive control peptide, direction not given): 46.2%
maraviroc — mRNA level decrease (RAGE (human); qPCR, measured: RAGE; HBMEC; 2.5 µM, 24 h; relative to: untreated cells): 3.94 fold
GGWVEKETYY — normalised SPR binding response (human SCRIB PDZ3-4 tandem (MBP fusion); surface plasmon resonance; peptide; concentration not given; higher = stronger binding): 0 normalised RU
AAAEGEMK — fractional oxidation (MsrA and MsrB; LC-MS/MS; peptide, acetylated Escherichia coli proteome; 10 min, pH 7.5, 37 °C, together with: MsrA 0.54 µM, MsrB 2.02 µM): 0.09
diazo-2 — time to peak current after uncaging (cone CNG channel; Morone saxatilis, cone outer segment; 1 mM, mean of seven cells, together with: 8-Br-cGMP 15 µM): 1.25 ± 0.23 s
KDECVIATEV — binding intensity (human MAGI1-3/6 PDZ construct (MBP fusion); automated holdup; peptide, purified PDZ protein; concentration not given, unit not given; relative to: biotin control resin, higher = stronger binding): -0.181
colistin — MIC (Enterobacter cloacae; broth microdilution; clinical isolate RKI-No_141/15): 4 µg/mL
AAAALERLLQQLAAALAAGEL — inhibition (UltraID biotin ligase, C-terminal fusion; biotinylation activity, inhibitor, streptavidin/HA fluorescence ratio; peptide, HEK-293T; concentration not given, 30 min, together with: biotin 50 µM; relative to: control): > 75%
QSARYRDTEL — binding intensity (human MAGI1-3/6 PDZ construct (MBP fusion); automated holdup; peptide, crude extract; concentration not given, corrected by standard peak, unit not given; relative to: biotin control resin, higher = stronger binding): -0.0135
KLLETRLQTGEKPRLLALVEG — inhibition (UltraID biotin ligase, C-terminal fusion; biotinylation activity, inhibitor, streptavidin/HA fluorescence ratio; peptide, HEK-293T; concentration not given, 30 min, together with: biotin 50 µM; relative to: control): > 75%
KPGKGSETVV — normalised SPR binding response (human SCRIB PDZ3-4 tandem (MBP fusion); surface plasmon resonance; peptide; concentration not given; higher = stronger binding): 0 normalised RU
AAASMWR — fractional oxidation (MsrA and MsrB; LC-MS/MS; peptide, acetylated Escherichia coli proteome; 20 min, pH 7.5, 37 °C, together with: MsrA 0.54 µM, MsrB 2.02 µM): 0.228
VVVGAVGVGK — relative protein remaining (HLA class I peptide complex; Western blot; peptide, 293T; 0 h, together with: cycloheximide 100 µg/mL; relative to: baseline): 1
methyl-β-cyclodextrin — glycine uptake rate (Sodium- and chloride-dependent glycine transporter 1 (SLC6A9, Homo sapiens, UniProt P48067); transport activity, [3H]glycine uptake; 2.5 mg/mL, 1 min, together with: glycine 37.5 µM; higher = more transport): 14.1 a.u. and 14.2 a.u. and 14.3 a.u. and 14.4 a.u.
Peginesatide — EC50 (UT7/EPO; phosphorylation, agonist, measured: phospho-ERK1/2; 10 min): 0.354 nM
ILEAAKSIAAATSALVKAASAAQRE — rupture force FWHM lower side (vinculin head domain Vd1; complex rupture, AFM single-molecule force spectroscopy; peptide; single traces, N-terminal pulling, 800 nm/s): 26.9 pN
GSGAGKESYV — normalised SPR binding response (human SCRIB PDZ3-4 tandem (MBP fusion); surface plasmon resonance; peptide; concentration not given; higher = stronger binding): 63.8 normalised RU
SPMSYGRARA (P453A substitution) — binding (VSR1 N-terminal domain R95M (Arabidopsis thaliana); pull-down; peptide; concentration not given, pH 7.1): inhibited
QDEKVKESYV — binding intensity (human MAGI1-3/6 PDZ construct (MBP fusion); automated holdup; peptide, crude extract; concentration not given, uncorrected, unit not given; relative to: biotin control resin, higher = stronger binding): 0.765
chondroitin — inhibition (NEDD8-cullin 1 interaction; AlphaScreen; 100 µM): -85%
ACDDQNPWRAYLDLLFPTDTLLLDLLW — mean fluorescence intensity (ex vivo fluorescence imaging; peptide, BALB/c mice, 4T1 tumour-bearing, liver; intravenous, 5 nmol, 24 h post-injection; higher = more uptake): 303 ± 64.4 a.u.
GSGAGPETLV — binding intensity (human SCRIB PDZ3-4 tandem (MBP fusion); automated holdup; peptide, crude extract; concentration not given, corrected by standard peak, unit not given; relative to: biotin control resin, higher = stronger binding): 0.547

For quick reference, copied from above:
VVVGASGVGK — relative protein remaining (HLA class I peptide complex; Western blot; peptide, 293T; 0 h, together with: cycloheximide 100 µg/mL; relative to: baseline): 1
heparin sodium — inhibition (NEDD8-cullin 1 interaction; AlphaScreen; 100 µM): 45.7%
GSGAGHETIV — normalised SPR binding response (human MAGI1-2/6 PDZ construct (MBP fusion); surface plasmon resonance; peptide; concentration not given; higher = stronger binding): 6.1 normalised RU
insulin degludec — AUClast (human; subcutaneous, 0.4 IU/kg, 1 FC level, single dose, reference formulation): 592 ± 89 ng·h/mL
Teicoplanin — protein binding (ultrafiltration, UPLC-MS/MS; pooled human serum, spiked; 25 mg/L, 37 °C): 83.2%
